# Assay results of several laboratories.
# A part holds a random share of what one study measured. Positions count from the first letter of the parent shown.
# UniProt Q00526, sequence (whole entry, looked up): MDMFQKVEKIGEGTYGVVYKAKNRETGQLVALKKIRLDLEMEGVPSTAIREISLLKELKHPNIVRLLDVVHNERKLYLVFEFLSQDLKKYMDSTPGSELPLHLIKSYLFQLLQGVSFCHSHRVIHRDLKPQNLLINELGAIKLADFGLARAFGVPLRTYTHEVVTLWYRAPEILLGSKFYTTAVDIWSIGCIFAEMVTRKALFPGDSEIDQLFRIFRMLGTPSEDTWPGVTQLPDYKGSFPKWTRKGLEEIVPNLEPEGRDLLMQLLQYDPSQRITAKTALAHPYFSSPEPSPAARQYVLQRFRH
# UniProt P22607, sequence (whole entry, unmodified, looked up): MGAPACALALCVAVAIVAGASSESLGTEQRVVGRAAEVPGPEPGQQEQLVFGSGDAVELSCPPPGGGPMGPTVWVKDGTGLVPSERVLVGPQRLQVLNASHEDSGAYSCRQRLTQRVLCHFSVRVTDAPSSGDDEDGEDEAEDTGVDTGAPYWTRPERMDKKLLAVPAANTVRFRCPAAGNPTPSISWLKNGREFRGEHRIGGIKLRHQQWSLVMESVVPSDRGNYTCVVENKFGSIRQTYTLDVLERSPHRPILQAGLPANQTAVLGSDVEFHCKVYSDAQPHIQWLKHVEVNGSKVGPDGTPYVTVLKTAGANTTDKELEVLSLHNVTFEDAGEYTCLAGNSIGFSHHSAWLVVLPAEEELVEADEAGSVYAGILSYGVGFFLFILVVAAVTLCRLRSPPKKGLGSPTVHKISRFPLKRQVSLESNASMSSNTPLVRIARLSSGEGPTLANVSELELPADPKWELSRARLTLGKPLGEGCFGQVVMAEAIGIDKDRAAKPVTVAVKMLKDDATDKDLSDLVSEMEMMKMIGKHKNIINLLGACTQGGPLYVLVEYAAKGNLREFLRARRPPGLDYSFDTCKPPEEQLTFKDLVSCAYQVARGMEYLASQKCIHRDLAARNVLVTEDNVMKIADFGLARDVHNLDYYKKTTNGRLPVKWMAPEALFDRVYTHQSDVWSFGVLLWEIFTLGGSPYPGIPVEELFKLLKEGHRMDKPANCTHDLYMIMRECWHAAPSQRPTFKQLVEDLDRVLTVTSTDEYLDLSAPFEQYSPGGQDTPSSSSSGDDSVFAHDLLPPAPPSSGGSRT
# UniProt P15735, sequence (whole entry, looked up): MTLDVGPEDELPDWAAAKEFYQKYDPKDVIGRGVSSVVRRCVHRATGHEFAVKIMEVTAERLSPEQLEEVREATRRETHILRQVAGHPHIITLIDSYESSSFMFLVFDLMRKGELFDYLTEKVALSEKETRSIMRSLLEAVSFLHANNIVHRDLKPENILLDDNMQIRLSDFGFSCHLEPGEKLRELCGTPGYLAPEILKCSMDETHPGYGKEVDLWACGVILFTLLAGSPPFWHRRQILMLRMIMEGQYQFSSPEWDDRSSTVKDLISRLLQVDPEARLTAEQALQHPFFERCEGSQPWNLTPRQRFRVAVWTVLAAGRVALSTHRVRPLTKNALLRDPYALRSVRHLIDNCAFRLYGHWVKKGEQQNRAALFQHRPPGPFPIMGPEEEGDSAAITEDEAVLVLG
# UniProt P54646, sequence (whole entry, looked up): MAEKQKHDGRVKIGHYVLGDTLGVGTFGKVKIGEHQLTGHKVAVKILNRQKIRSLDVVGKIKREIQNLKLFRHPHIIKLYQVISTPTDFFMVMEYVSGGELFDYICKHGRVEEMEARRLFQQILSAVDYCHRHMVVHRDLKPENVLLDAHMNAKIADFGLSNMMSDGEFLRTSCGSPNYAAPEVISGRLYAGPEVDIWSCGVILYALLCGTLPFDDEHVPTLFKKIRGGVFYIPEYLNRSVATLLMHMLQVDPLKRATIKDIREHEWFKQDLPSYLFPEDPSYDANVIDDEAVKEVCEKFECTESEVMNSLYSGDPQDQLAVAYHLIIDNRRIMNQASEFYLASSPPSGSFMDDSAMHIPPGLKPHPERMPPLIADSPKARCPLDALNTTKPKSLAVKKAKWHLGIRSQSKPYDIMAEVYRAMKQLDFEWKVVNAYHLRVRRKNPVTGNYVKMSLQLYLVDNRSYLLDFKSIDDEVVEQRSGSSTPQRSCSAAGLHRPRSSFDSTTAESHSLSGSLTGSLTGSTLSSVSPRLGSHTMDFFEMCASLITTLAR

# Set 1
# Structure (SMILES): CN(c1ccnc(CNc2nc(Nc3ccc4c(c3)CC(=O)N4)ncc2C(F)(F)F)n1)S(C)(=O)=O
# Observed: cell-free assay
# Method: competition with immobilised ligand
# Concentration: 1 µM
target,remaining binding [%]
"Cyclin-dependent kinase 3 (CDK3, Homo sapiens, UniProt Q00526)",90
"Mitogen-activated protein kinase 9 (MAPK9, Homo sapiens, UniProt P45984)",79
"Phosphorylase b kinase gamma catalytic chain, liver/testis isoform (PHKG2, Homo sapiens, UniProt P15735)",63
"5'-AMP-activated protein kinase catalytic subunit alpha-2 (PRKAA2, Homo sapiens, UniProt P54646)",87
"Fibroblast growth factor receptor 3 (FGFR3, Homo sapiens, UniProt P22607, G697C)",89

# Set 2
# Target: CEP164, C-terminal peptide (human)
# Method: DHFR complementation, deep sequencing
# Matrix: yeast
# Notes: single substitutions, model-inferred values
# Reference: wild type
# Reading: higher = weaker binding
# Parent: PDZK1, PDZ domain 2 (human); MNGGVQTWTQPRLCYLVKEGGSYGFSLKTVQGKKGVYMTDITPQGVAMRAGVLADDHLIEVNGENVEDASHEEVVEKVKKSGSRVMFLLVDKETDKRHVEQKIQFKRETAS; partner HNRVKVYRF
Variant,binding free energy change
P11E,0.333 kcal/mol
H57N,0.028 kcal/mol
M1W,-0.148 kcal/mol
Q44N,-0.0626 kcal/mol
F87Q,1.55 kcal/mol
V5C,-0.0538 kcal/mol
S81P,0.51 kcal/mol
N2H,-0.0737 kcal/mol

# Set 3
# Target: CCNF, cyclin fold, Cln2 fusion (human)
# Method: yeast growth competition, sequencing
# Matrix: yeast
# Notes: strong parent motif
# Reference: not given
# Reading: higher = stronger binding
# Parent: CDKN1B docking peptide (human); PSACRNLFGPVDH; partner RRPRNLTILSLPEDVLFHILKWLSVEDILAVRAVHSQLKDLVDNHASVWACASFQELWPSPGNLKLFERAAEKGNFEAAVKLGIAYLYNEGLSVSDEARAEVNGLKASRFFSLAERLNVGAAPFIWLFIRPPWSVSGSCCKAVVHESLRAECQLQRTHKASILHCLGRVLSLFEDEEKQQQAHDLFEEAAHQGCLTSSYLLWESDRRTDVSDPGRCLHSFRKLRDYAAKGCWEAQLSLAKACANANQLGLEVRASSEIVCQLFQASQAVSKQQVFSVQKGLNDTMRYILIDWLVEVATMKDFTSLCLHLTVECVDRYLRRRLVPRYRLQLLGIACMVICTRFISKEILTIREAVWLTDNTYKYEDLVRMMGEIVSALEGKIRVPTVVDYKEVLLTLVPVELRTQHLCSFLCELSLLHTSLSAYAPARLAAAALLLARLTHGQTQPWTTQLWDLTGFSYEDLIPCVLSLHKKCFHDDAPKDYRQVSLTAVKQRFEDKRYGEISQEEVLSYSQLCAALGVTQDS
Variant,normalised enrichment score
P10W,7.99
C4K,7.28
V11S,7.21
G9W,4.46
G9Y,5.75
P1E,5.13
G9M,3.91
F8T,0.481

# Set 4
# Target: Vascular endothelial growth factor receptor 1 (FLT1, Homo sapiens, UniProt P17948)
# UniProt P17948, sequence (whole entry, looked up): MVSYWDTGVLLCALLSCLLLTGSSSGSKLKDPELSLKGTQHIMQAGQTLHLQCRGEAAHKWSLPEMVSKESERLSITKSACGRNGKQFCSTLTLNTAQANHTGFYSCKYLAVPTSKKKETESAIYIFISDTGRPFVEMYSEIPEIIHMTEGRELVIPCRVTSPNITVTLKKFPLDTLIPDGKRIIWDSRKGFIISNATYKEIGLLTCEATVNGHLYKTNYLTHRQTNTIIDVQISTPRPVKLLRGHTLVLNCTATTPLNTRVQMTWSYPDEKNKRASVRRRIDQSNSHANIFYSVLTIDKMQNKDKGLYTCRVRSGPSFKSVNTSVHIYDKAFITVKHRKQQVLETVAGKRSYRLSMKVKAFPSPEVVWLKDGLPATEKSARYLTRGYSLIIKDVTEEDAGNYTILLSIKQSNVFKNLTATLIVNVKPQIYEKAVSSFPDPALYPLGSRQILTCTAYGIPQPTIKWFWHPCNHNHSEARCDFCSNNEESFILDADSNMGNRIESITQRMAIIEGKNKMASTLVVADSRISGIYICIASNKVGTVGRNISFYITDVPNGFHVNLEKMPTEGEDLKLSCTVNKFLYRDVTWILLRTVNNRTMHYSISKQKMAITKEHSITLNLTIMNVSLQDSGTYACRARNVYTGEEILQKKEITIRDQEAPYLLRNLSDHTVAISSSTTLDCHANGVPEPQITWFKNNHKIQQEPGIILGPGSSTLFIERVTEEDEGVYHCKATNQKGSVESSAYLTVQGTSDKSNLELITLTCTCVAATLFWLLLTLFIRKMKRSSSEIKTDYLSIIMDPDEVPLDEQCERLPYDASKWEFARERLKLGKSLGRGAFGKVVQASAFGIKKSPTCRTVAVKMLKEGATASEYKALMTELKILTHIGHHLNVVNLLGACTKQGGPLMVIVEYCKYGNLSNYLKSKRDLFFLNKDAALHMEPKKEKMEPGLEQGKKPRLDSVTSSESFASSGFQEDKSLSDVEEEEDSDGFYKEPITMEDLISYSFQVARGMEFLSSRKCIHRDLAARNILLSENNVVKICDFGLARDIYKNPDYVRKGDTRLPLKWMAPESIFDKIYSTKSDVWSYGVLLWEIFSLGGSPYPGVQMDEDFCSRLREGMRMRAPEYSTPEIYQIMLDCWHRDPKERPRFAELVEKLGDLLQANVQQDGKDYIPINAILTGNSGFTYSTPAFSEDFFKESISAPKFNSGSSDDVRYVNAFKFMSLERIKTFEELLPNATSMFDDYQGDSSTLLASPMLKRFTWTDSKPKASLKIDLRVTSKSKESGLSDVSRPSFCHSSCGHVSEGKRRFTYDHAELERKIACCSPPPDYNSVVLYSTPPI
# Observed: enzyme activity
# Mode: inhibitor
# Concentration: 0.5 µM
# Reference: control
SMILES,remaining activity [%]
Cn1sc(=O)n(Cc2ccccc2)c1=O,96.1
O=C1NC(=O)C(c2cn(CCCn3ccnc3)c3ccccc23)=C1Nc1ccccc1,85.7
O=S(=O)(c1cccc2cnccc12)N1CCCNCC1,90
Nc1[nH]nc2nc3ccccc3nc12,92.1
C#Cc1cccc(Nc2ncnc3cc(OCCOC)c(OCCOC)cc23)c1,87.5
COc1cc2ncnc(Nc3ccc(F)c(Cl)c3)c2cc1OCCCN1CCOCC1,98.3
CC(C)[C@H](CO)Nc1nc(Nc2cc(N)cc(Cl)c2)c2ncn(C(C)C)c2n1,97.5
O=C(O)c1ccc2c3c1cccc3c(=O)n1c3ccccc3nc21,86.5
COc1ccc(OC)c2c(=S)c3ccccc3[nH]c12,101
CCOC(=O)c1c(C)[nH]c(/C=C2\C(=O)Nc3ccccc32)c1C,79
N#CC(C#N)=C(N)/C(C#N)=C/c1ccc(O)cc1,90.7
O=c1c2ccccc2[nH]c(=S)n1CCN1CCC(=C(c2ccc(F)cc2)c2ccc(F)cc2)CC1,95.2
COc1ccc(C(=O)Nc2sc3c(c2C(N)=O)CCCC3)cc1OC,99.1
Oc1ccc(-c2nc(-c3ccncc3)c(-c3ccc(F)cc3)[nH]2)cc1,90.6

# Excerpt of the above (set 1):
target,remaining binding [%]
"5'-AMP-activated protein kinase catalytic subunit alpha-2 (PRKAA2, Homo sapiens, UniProt P54646)",87
"Fibroblast growth factor receptor 3 (FGFR3, Homo sapiens, UniProt P22607, G697C)",89
